Assay results of several laboratories.
Lines come from different studies, so protocols differ. ± gives the spread as reported.
Organism: Trypanosoma brucei rhodesiense

| Compound | observed | technique | strain | time | IC50 |
| --- | --- | --- | --- | --- | --- |
| O=C(Nc1ccc2c(c1)CN(c1ccccc1)C2=O)N1CCN(c2ccc(F)cc2)CC1 | parasite growth | resazurin | STIB-900 | 3 d | > 64 µM |
| Cc1ccc(/C=N/N=C/c2ccc([N+](=O)[O-])s2)cc1 | parasite growth | CellTiter-Glo | IL1501 bloodstream form | 72 h | 2.07 ± 0.99 µM |
| CCOC(=O)C(CC)NC(=O)CN1C(=O)S/C(=C\c2ccc(C)cc2)C1=O (centres unmarked) | cell viability | – | IL1501 | 72 h | > 59 µM |
| O=C(Nc1ccc2c(c1)CN(c1ccc(Br)cc1)C2=O)N1CCN(c2ccc(F)cc2)CC1 | cell growth | resazurin | STIB-900 | 3 days | 0.05 µM |
| O=[N+]([O-])c1ccc(/C=N/N=C/c2ccc([N+](=O)[O-])o2)cc1 | parasite growth | CellTiter-Glo | IL1501 bloodstream form | 72 h | 1.31 ± 0.04 µM |
| CCOC(=O)CNC(=O)CN1C(=O)S/C(=C\c2ccc(C)cc2)C1=O | cell viability | – | IL1501 | 72 h | > 63 µM |
| Cc1ccc(/C=N/N=C/c2ccc([N+](=O)[O-])o2)cc1 | parasite growth | CellTiter-Glo | IL1501 bloodstream form | 72 h | 3.71 ± 1.3 µM |
| CCOC(=O)C(NC(=O)CN1C(=O)/C(=C/c2ccc3c(c2)OCO3)SC1=S)C(C)C (centres unmarked) | cell viability | – | IL1501 | 72 h | > 69 µM |
| O=C(Nc1cc2nc(-c3ccc(F)c(F)c3)c(CO)n2cn1)N1CC[C@H](F)C1 | parasite growth | – | STIB900 | 3 days | 1.06 µM |
| O=[N+]([O-])c1ccc(/C=N/N=C/c2ccc([N+](=O)[O-])s2)cc1 | parasite growth | CellTiter-Glo | IL1501 bloodstream form | 72 h | 0.93 ± 0.23 µM |
| Cc1ccc(N2Cc3cc(NC(=O)N4CCN(c5cccc(C(F)(F)F)c5)CC4)ccc3C2=O)cc1 | cell growth | resazurin | STIB-900 | 3 days | 0.04 µM |
| O=C(Nc1cc2nc(-c3ccc(F)c(F)c3)cn2cn1)N1CC[C@H](F)C1 | parasite growth | – | STIB900 | 3 days | 0.11 µM |
| CCOC(=O)C(CC)NC(=O)CN1C(=O)S/C(=C\c2ccc([N+](=O)[O-])cc2)C1=O (centres unmarked) | cell viability | – | IL1501 | 72 h | > 66 µM |
| O=C(Nc1ccc2c(c1)CN(c1ccc(Cl)cc1)C2=O)N1CC[C@H](O)C1 | parasite growth | resazurin | STIB-900 | 3 d | > 64 µM |

For quick reference, copied from above:
| Compound | observed | technique | strain | time | IC50 |
| --- | --- | --- | --- | --- | --- |
| O=C(Nc1cc2nc(-c3ccc(F)c(F)c3)c(CO)n2cn1)N1CC[C@H](F)C1 | parasite growth | – | STIB900 | 3 days | 1.06 µM |
